Experimental data of several laboratories.
Each numbered part is a random draw from the data of one study; scales do not carry over between parts. Changes are numbered by the printed parent chain.

Study 1
Target: RING finger protein unkempt homolog, zinc fingers 1-6, GST-SBP tag (UNK, Homo sapiens, UniProt Q9C0B0, residues 30-357)
Chain of UniProt Q9C0B0 (30-357, looked up): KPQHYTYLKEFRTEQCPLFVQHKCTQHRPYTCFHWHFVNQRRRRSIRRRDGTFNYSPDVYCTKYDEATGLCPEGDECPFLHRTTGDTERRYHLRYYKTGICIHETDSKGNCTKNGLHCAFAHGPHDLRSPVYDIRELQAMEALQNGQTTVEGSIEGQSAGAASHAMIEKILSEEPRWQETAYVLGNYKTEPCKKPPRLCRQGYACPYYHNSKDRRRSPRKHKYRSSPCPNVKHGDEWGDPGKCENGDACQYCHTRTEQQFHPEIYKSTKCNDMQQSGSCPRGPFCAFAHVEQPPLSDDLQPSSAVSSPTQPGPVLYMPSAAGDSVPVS
Method: RNA Bind-n-Seq
Molecule type: RNA
Matrix: in vitro
Tested at: not given
Setting: RNA with constant flanks, human-mouse chimeric sites, ends assumed
Baseline: input RNA pool
Reading: higher = stronger binding
With `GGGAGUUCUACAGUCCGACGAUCCGGAAGUUCUUGAUUUAUCAUUUUUCUCUUUUCUUUCUUUCCUUUAGGAAAAGCCUAAAGAUUAGGUUGUAAGAAAAGAAAAUAGAAUGUUUCGAAGACCUGUGUUACAGGUAUUUCGUCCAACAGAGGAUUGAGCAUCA` the bound/input enrichment was 0.339 ratio.
The bound/input enrichment of `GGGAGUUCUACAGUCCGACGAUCAGCACAACCCCAGCAAAGCUAAGAAAUCCUUGUACAAGUGAACAAAACUGCACCAGCCCAUUUAGCUACAAAAAUGUGCUCAGUCUUACUGACAGAGGAGAGUUUUUUAAUGAACUUGUUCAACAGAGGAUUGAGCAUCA` is reported as 1.27 ratio.
`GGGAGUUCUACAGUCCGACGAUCGUGACUGGUGUUAAGAUUUCCCCUCAGAAAAGAACUGUAGCAGUGACCAUAAUUCCAUCUGUGGUGAGUGCCAGUCAGAUUGUGGAGCUGGUCCCAGACCUCAGUUUAGACAUGGGAACUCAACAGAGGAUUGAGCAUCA` gave a bound/input enrichment of 0.281 ratio.
For `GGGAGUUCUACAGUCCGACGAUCUCCCAAAUCCAGCAGCUCCUUGAAAUAUUGAGACAAACACUCCACACGCAGGGAGGGCGAUAACAUUGUACAUUGGUUUACAUUUUUUCCCCCUGUGGAUUUUUCUAGAGGUCAUAGUGCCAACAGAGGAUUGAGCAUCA`, the bound/input enrichment was 0.51 ratio.
`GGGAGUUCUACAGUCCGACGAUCCAGUCCCCGUGUCCCAGGGGACAAUGUUGUGAACAAAAACUCAAAGCGGACCCUCUAUUGUAGUUCUUGAUUCUCGAAAUGUGCUAUUGUUUUUAAACUUUUUUUUUUUUUUUUUAAAGACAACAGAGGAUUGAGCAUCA` gave a bound/input enrichment of 1.31 ratio.
With `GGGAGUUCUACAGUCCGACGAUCAAAGUGGACUAUGGUGAGUACAUGGAUAAAAACAAUGUGAGGCGGCAAGCAACAACAAUCAUAGCUGAUAACAUUAUAUUUCUGAGUGACCAGACAAAAGAAAAGGCGUAGAAAGGAUGACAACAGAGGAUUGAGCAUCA` the bound/input enrichment was 2.07 ratio.
`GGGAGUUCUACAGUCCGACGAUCUACUCAACUUUCUUGCCACAUUUUGAAUUCCAAGACAUUAUUCCUCCAGAUGACUUUCUAACGAGUGAUGAAGAGCAAGAUUUGGUUUUAUUUGGAACUAUGAGAGGACAAGUUGUUGGACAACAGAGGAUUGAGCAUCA` gave a bound/input enrichment of 0.194 ratio.
For `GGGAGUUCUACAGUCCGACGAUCACUCAGAGAUCCACCUCCCAAAGUGCUGGGAGUAAAGUCUGAUAUUACACACCUAACUUGAUGGAUAUAUAUUUUUUUUAAUAUGAAUCUUCCUGUUCGUCCAGGGAGCAAGAACGGGUUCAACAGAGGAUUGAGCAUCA`, the bound/input enrichment was 0.231 ratio.
`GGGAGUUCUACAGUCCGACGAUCGGUGGGGUGGUCAUUGCCGUUUGAGCUGCUGAUUUUCAUGAGUCGCCUUCAAAACUCUCGUGUAGGGUUGACACUGUGGGGGGGUGGGAAAUCUAGCUUAUUCUUUUAUUUUCAAGUCCACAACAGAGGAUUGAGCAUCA` has a bound/input enrichment of 5 ratio.
For `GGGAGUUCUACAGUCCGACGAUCUGUGCAUAUGAUGCUUGAGAUGGUUUUUGCAGAUGCAGAAAUCGCUGCAAGGUAAUCACAAUAGAUAAAAGUGGUAUUUUAAACCUUUGAAAUAAAUGGAUGUAACUGUACCUUGGUACACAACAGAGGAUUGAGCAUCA`, the bound/input enrichment was 0.574 ratio.
With `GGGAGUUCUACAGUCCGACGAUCCGCUGGCGUUGAACUGUGGACUCUGAUGGCCUCCAUCAAGGUAUUAUGUGUGCCUUCUCUUAGUCCCUGUUUUCGGGAUGUUAUGAAUCUCAGUACUGUGGUUUGAAAGCACCAGCUUUGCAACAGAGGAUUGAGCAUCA` the bound/input enrichment was 0.153 ratio.

Study 2
Target: CCNB2, cyclin fold, Cln2 fusion (human)
Method: yeast growth competition, sequencing
Matrix: yeast
Setting: weak parent motif
Baseline: not given
Reading: higher = stronger binding
Parent: CDKN1C docking peptide (human); TSACRSLFGPVDH; partner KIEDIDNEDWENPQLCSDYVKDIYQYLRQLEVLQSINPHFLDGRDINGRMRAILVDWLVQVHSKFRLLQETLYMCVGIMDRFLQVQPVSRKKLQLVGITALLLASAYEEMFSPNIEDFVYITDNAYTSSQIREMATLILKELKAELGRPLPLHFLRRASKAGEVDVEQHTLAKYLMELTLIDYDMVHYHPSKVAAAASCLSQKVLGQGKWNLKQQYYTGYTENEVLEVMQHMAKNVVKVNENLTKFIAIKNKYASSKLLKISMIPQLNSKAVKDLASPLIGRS
`G9A` — result for “normalised enrichment score”: 0.332.
Under “normalised enrichment score”, `V11A` is recorded as 0.142.
For `L7A`, “normalised enrichment score” read 0.0207.
`S6A` — result for “normalised enrichment score”: -0.102.
`H13A` — result for “normalised enrichment score”: -0.0893.
Under “normalised enrichment score”, `P10A` is recorded as 0.0177.
Under “normalised enrichment score”, `R5K` is recorded as 0.347.

Study 3
Target: Interferon regulatory factor 7, full length, phosphomimetic (IRF7, Homo sapiens, UniProt Q92985, residues 1-503, S101K/S471D/S472D/S475D/S476D/S477D/S483D/S484D/S487D)
Chain of UniProt Q92985 (whole entry, unmodified, looked up): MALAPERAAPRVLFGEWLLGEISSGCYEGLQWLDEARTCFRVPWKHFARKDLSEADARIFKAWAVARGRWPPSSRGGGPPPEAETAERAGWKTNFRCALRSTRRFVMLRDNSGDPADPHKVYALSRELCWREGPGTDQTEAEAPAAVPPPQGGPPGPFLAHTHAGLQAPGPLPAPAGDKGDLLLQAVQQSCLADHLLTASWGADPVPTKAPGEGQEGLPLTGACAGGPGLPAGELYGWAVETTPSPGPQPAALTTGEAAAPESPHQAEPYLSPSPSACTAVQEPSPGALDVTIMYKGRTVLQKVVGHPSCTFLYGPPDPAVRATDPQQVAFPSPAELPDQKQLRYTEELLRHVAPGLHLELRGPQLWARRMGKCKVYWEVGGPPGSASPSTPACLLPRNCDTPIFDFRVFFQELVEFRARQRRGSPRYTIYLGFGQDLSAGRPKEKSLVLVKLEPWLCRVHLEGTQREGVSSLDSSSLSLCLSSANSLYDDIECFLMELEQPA
Method: protein-binding microarray
Molecule type: double-stranded DNA, one strand shown
Matrix: in vitro
Tested at: 250 nM
Setting: 60-bp whole probe
Together with: salmon DNA 0.4 mg/ml
Baseline: random background probes
Reading: higher = stronger binding
All sequences stand within: GCCTAGCAC … GTCTTGATTCGCTTGACGCTGCTG
`TTAGATCTCAGTATAGATTAGTGCTAG` has a log fluorescence of 0.0796 z-score.
`TTAGGTTTCCACACTGGGTTAGTGCTA` has a log fluorescence of 0.944 z-score.
`GACGGTTTCCTTTCCGTGACGTGCTAG` has a log fluorescence of 4.14 z-score.
`GACGGTATCGGGCTTCGGGACGTGCTA` gave a log fluorescence of -0.467 z-score.
`TCAAACTTTTTTCTGATACTGTGCTAG` gave a log fluorescence of 0.159 z-score.
`TCAGCTTTCCTGATGGTACTGTGCTAG` gave a log fluorescence of -0.211 z-score.
`TTAGGTATCGGTATCAGTTAGTGCTAG` gave a log fluorescence of 1.45 z-score.
The log fluorescence of `TTGGAACTGAGTATCGATTAGTGCTAG` is reported as 0.591 z-score.
With `TCATATATGCATGTAAAACTGTGCTAG` the log fluorescence was 0.278 z-score.
`TCATCCTTCTGACATCAAACTGTGCTA` has a log fluorescence of 0.81 z-score.
`TTGGATCTCAGTTTCGATTAGTGCTAG` has a log fluorescence of 7.66 z-score.
`GTGACTCAGCACTTTGGCATGGTGCTA` gave a log fluorescence of -0.196 z-score.
The log fluorescence of `TTAGCTTTCCTTTCCCTTTAGTGCTAG` is reported as 1.93 z-score.
For `TTATATATCAGACTGGATTAGTGCTAG`, the log fluorescence was 0.284 z-score.
With `GACGGTATCGCGACTGGGGACGTGCTA` the log fluorescence was -0.389 z-score.
`AGATGTGTCTTAAATAGGGCAGTGCTA` gave a log fluorescence of -0.208 z-score.
For `GTACCACTCCAGTTCTGGGAGTGCTAG`, the log fluorescence was 1.53 z-score.
`TTAGGACTGGGGATTGGGTTAGTGCTA` gave a log fluorescence of -0.4 z-score.
For `TGCTTCTAACAGAGGAGGTTGTGCTAG`, the log fluorescence was 0.645 z-score.
`TTAGATTTCAGTATCGATCAGTGCTAG` gave a log fluorescence of 0.551 z-score.
`TTAGGTTTCGGGTTTCGGCTAGTGCTA` has a log fluorescence of 11.6 z-score.
For `TCACTAATCTCACTCTGACTGTGCTAG`, the log fluorescence was 0.347 z-score.
`TCACCTCAGGGTTTCAGACTGTGCTAG` gave a log fluorescence of 0.0336 z-score.
The log fluorescence of `TCAACAATGATGTTTTGAACTGTGCTA` is reported as -0.437 z-score.
For `GACGGTCTCGGTCTCCGGACGTGCTAG`, the log fluorescence was 1.15 z-score.

Study 4
Target: RNA binding protein fox-1 homolog 2, RRM domain, GST-SBP tag (RBFOX2, Homo sapiens, UniProt O43251-10, residues 100-194)
Method: RNA Bind-n-Seq
Molecule type: RNA
Matrix: in vitro
Tested at: 365 nM
Setting: natural RNA segment, single round, ends assumed
Baseline: no-protein control
Reading: higher = stronger binding
Residues (chain): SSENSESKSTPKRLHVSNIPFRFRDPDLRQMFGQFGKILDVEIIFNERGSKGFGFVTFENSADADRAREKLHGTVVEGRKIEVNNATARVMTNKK
`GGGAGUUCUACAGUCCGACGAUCAAAUGGCAUAUGGAUUAACUAUAAGAAAUGAAAUAAGUAAUUUAUUGUAAGACAACAUCAAGCCAUGGAAACUUGGCAGAAGAUUCAAAGCAGCUUAAACAGCACUUUUAUGGAAUUCUCGGGUGCCAA`: “RBNS enrichment (R)” 0.297.
For `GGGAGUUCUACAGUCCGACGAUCAAGAGUUUAGAAGAAACAAAAGGCCUUAGAGUCAUCUCUAUGUAAUUGUAUCCUGGUUUCCCCAUCUCCUUAUCCUGAUUUCUCAUUGCUCUUCUGUCCUGCCUCACUGUUGGAAUUCUCGGGUGCCAA`, “RBNS enrichment (R)” read 0.367.
`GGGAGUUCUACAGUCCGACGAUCUGUGCGCCUGCUCGACCCCGGGCCUGAGCAGGGGCGCCAAAUCUCCCACUAUACCUGAGCACCGGGAGCUUCCAGAGCACGCCUGCCUCCCUCCCUCUAGUCUGCAUGUGUGGAAUUCUCGGGUGCCAA` — result for “RBNS enrichment (R)”: 14.
`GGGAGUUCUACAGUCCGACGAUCUCAGUAUCAGAAGUCAAAGCGAAACAAUACCGUCUGGCACUUAACUCUCAGGUCCCCCACUUAGUCAGGCCUGAGCUAAUUUAUUUGAGCGCAGAGUGUAAAAUUUUAAUUGGAAUUCUCGGGUGCCAA` — result for “RBNS enrichment (R)”: 0.369.
Under “RBNS enrichment (R)”, `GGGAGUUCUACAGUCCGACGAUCCCCCAAUUAAAUGUUGUCCUUAUAAGAGUUGCCUUGGUCACGGUGUCUGUUCACAGCAGUAAAAACUUAACUAAGACACAUACUGCUCUGAAAAUAAAAUAACUUUCUAUUGGAAUUCUCGGGUGCCAA` is recorded as 0.505.
`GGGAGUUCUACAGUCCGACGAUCUUUGUAUAUACGGUUACGUAUUAACUCUGGAAUCCUAUGGGCUCAUCUUGCUCACCCAAUGUGGGAGUCUGGUUUGAGCAAGCGAGCUGAAUGUGACUAUUAAAAAAAAUUGGAAUUCUCGGGUGCCAA`: “RBNS enrichment (R)” 1.41.
For `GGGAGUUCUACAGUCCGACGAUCUUGGGGAGAUAUUUGGGAGCAAACUUAUUUAGAUUUAGAGUAAACUUUUCAUUAUAGAGCAAGUAAAAACAGACAAAUGAAACAACCUAGUGUUUCACAUAAAAAUACUUUGGAAUUCUCGGGUGCCAA`, “RBNS enrichment (R)” read 0.656.
`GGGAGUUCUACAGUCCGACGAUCGGGAAGGUUGGAGCAGCCCCCAGGGAGGGGGGCACUAGGUGUCAUUGUGCCCGAUGUCUGGCUCCCCUGCAGGAGGGAGGCUCCAGGGUAAGACAGGGCUGGCAGGAGCAUGGAAUUCUCGGGUGCCAA` — result for “RBNS enrichment (R)”: 3.41.
`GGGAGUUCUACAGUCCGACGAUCAAGAUUAGAAAAGGAACCCAAAAAACCCUUUAACAGUGUGAAUCUUUAUAGUAUUUGAAAAUGAGAAGAAGCAGCAGAUUGUAAUUUGGUUUAUUGGAUGUGAUGGACGUUGGAAUUCUCGGGUGCCAA`: “RBNS enrichment (R)” 0.626.
`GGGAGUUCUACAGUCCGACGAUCAUGGACUACCCUGAGGAUGGGAUCACCCCCUUCGUGCCUCAUGGAAUUCAGUCCCAUGCACUACACUCUGGAUGGUGUAUGACUGGAUGAAUGGGUUUCUAUAUAUGGGUUGGAAUUCUCGGGUGCCAA`: “RBNS enrichment (R)” 0.263.
Under “RBNS enrichment (R)”, `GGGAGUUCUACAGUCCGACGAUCACAGGAUUUGAUGUUAUUAACAUUUGUCGUCAUACCUCAUAAGUCGGUCCCUGCCUUGUCUGUCUAGGCCCAUUUGGGGCUCCCUGUGAGUGAUUCCCCUCUCUCUGCUAUGGAAUUCUCGGGUGCCAA` is recorded as 0.478.
For `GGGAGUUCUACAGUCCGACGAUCUGCUGGUGGCUGCUCUCACAGUGGCUUGUAACAACUUCUUCUGGGAGACCAGUUGAGCACAGUCUGUGAGCAGUGCCCUUCCUCUCCCACUUGUCAAGAUUUCCCCUUUAUGGAAUUCUCGGGUGCCAA`, “RBNS enrichment (R)” read 0.382.

A few entries again (study 3):
For `TCACTAATCTCACTCTGACTGTGCTAG`, the log fluorescence was 0.347 z-score.
`TCACCTCAGGGTTTCAGACTGTGCTAG` gave a log fluorescence of 0.0336 z-score.
The log fluorescence of `TCAACAATGATGTTTTGAACTGTGCTA` is reported as -0.437 z-score.
For `GACGGTCTCGGTCTCCGGACGTGCTAG`, the log fluorescence was 1.15 z-score.
